Results of several laboratories.
Lines come from different studies, so protocols differ.
Target: cAMP-dependent protein kinase catalytic subunit beta (PRKACB, Homo sapiens, UniProt P22694)

C=CC(=O)N1CCc2ccc(-n3c(=O)ccc4cnc5ccc(-c6cnn(C)c6)cc5c43)cc21
remaining binding (KINOMEscan; 1 µM; baseline: DMSO control): 73%

C=CC(=O)Nc1cccc(-c2cnc3[nH]cc(C(=O)NC(C)(C)C)c3n2)c1
inhibition (kinase activity; 0.1 µM): 3%

C=CC(=O)N1CCCC(n2c(=O)c3ncccc3n(Cc3ccc(Oc4ccccc4)cc3)c2=O)C1 (stereo not drawn)
remaining binding (cell-free assay, competition with immobilised ligand; 1 µM): 100%

NC(=O)C[C@H]1CCc2sc3ncnc(O[C@H]4CC[C@H](N5CCOCC5)CC4)c3c21
inhibition (enzyme activity, inhibitor; 10 µM): 4%

CNC(=O)C[C@H](Cc1ccc(C#N)cc1)NC(=O)c1cc(-c2ccc(CN[C@H](C)c3ccc(C)cc3)o2)ccc1Cl
activity vs control (enzyme activity, inhibitor; 1 µM): 89%

C=CC(=O)N1Cc2nc(-c3cc(-c4cc(Cl)cnc4Cl)c(F)cc3F)n(-c3ccncn3)c2C1
inhibition (cell-free assay, inhibitor; 1 µM): -1.5%

Nc1ncc(-c2cc(-c3cnn(CC(F)(F)F)c3)ncc2F)nc1C(=O)NC1CNCC(F)C1 (stereo not drawn)
remaining activity (enzyme activity; 1 µM; baseline: DMSO control): 103%

Cc1cccc(O[C@H]2CCC[C@@H](C(C)CNCc3ccncc3)C2)c1 (relative stereo)
inhibition (enzyme activity, inhibitor; 1 µM): 2%

Cc1cnc2nc1Nc1cccc(c1)COC/C=C/COCc1cc(ccc1OCCN1CCOCC1)N2
remaining binding (binding, competition with immobilised ligand; 0.1 µM): 93%

CN1CC[C@@H](COc2cnc(C#N)cc2-c2ccn3nc(NC(=O)C4CC4)cc3c2)C1
inhibition (enzyme activity, inhibitor; 1 µM): -4%

CNC1C[S+]2CC[S+]3CC[S+](C1)[Ru-4]321([N]=C=S)[n]2c3ccc(OC)cc3c3c4c(c5cc(F)c[n+]1c5c32)C(=O)NC4=O (stereo not drawn)
remaining binding (KinomeScan; 0.1 µM; baseline: untreated): 86%

Nc1ncc2c(n1)-c1c([nH]c3ccc(C4=CCOCC4)cc13)CCC2
remaining binding (binding, competition with immobilised ligand; 1 µM): 100%

A few entries again:
NC(=O)C[C@H]1CCc2sc3ncnc(O[C@H]4CC[C@H](N5CCOCC5)CC4)c3c21
inhibition (enzyme activity, inhibitor; 10 µM): 4%
